Measurements pooled from the literature.
Values joined by “and” are separate records of one study, mostly repeats; a detail may differ. ± marks the error that the study gave. In brackets after ≈: the same amount, converted by molar mass.
Chain of UniProt Q86SG6 (whole entry, looked up): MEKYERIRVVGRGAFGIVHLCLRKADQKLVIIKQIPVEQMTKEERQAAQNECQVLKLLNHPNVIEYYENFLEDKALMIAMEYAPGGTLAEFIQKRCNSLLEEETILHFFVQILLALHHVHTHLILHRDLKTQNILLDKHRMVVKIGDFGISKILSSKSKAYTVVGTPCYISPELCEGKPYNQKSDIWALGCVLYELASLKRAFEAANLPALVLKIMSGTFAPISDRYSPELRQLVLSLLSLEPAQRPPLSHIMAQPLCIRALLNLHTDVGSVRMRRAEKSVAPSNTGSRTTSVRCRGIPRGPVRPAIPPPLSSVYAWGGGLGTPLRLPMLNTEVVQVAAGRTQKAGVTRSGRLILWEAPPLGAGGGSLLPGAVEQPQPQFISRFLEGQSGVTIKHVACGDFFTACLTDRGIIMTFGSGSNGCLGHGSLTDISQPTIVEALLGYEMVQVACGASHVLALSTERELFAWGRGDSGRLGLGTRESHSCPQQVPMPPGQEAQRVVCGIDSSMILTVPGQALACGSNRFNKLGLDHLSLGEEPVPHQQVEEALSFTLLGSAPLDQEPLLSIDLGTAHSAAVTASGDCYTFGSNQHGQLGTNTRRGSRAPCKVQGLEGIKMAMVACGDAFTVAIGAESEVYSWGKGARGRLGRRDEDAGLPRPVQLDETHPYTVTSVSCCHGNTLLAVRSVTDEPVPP

Compound	target or system	test	test system	setting	scale	quantity	result
COc1ccccc1-c1n[nH]c2nc(N[C@H]3CC[C@H](NS(=O)(=O)CC(C)C)CC3)ncc12		bead binding, competition bead pull-down, measured: LMJF.21.0810	Leishmania donovani extract	10 µM	reference: vehicle	relative abundance	1.04
Cc1cc(Oc2nc(N3CC[C@@H](c4ccncc4)C3)ncc2F)[nH]n1	SF-268	cell proliferation	brain cancer			IC50	> 100 µM
CC(C)C[C@@H]1NC(=O)C(C)(C)NC(=O)[C@@H]2CCCN2C(=O)[C@H](C(C)C)NC(=O)[C@H](Cc2ccccc2)NC(=O)CSCCNC(=O)[C@H](Cc2ccccc2)N(C)C(=O)[C@H](CC(C)C)NC(=O)[C@H](Cc2cccc3ccccc23)NC1=O	HIV-1	viral replication	MT4		reference: cell EC50 over protease IC50	EC50/IC50 ratio	205
C[N+]1=C2C(c3ccc(Cl)cc3)=[N+]([O-])c3ccccc3N2CCC1	Clostridioides difficile	microbial growth				MIC50	32 µg/mL
CC[C@H](C)CCCCC(=O)N[C@@H](CCN)C(=O)N[C@H](C(=O)N[C@@H](CCN)C(=O)N[C@H]1CCNC(=O)[C@H]([C@@H](C)O)NC(=O)[C@H](CCN)NC(=O)[C@H](CCN)NC(=O)[C@H](CC(C)C)NC(=O)[C@@H](CC(C)C)NC(=O)[C@H](CCN)NC1=O)[C@@H](C)O	Escherichia coli	daily serial passaging	ATCC 8739	highest sub-MIC, 32 days	reference: initial MIC	MIC fold change	1.95
CC[C@H](C)[C@@H]1NC(=O)[C@H](CO)NC(=O)C(C)(CCCCN)NC(=O)[C@@H]2CSSC[C@@H](C(=O)N[C@@H](Cc3ccc(O)cc3)C(N)=O)NC(=O)[C@H](CCCCN)NC(=O)[C@@H]3CSSC[C@H](NC(=O)[C@H](CCCNC(=N)N)NC(=O)C(C)(CC(C)C)NC(=O)[C@H](CC(=O)O)NC(=O)[C@H](CC(=O)O)NC(=O)[C@H](CCC(=O)O)NC(=O)[C@H](CC(N)=O)NC(=O)[C@H](Cc4c[nH]c5ccccc45)NC(=O)C(C)(CC)NC(=O)CNC(=O)[C@H](CC(N)=O)NC(=O)[C@@H](NC(=O)CNC(=O)[C@H](Cc4ccccc4)NC(=O)CN)CSSC[C@H](NC(=O)[C@H](Cc4ccc(O)cc4)NC(=O)CNC(=O)CNC(=O)[C@H](CCCCN)NC(=O)[C@H](Cc4ccc(O)cc4)NC(=O)[C@H]4CCCN4C(=O)[C@@H]4CCCN4C1=O)C(=O)N[C@@H](C)C(=O)N[C@@H](CCCCN)C(=O)N1CCC[C@@H]1C(=O)NCC(=O)N[C@@H](Cc1ccccc1)C(=O)N[C@@H](C(C)C)C(=O)N3)C(=O)N[C@@H](Cc1c[nH]cn1)C(=O)NC(C)(C)C(=O)N[C@@H](Cc1c[nH]cn1)C(=O)N2 (stereo partly drawn)	Streptococcus pneumoniae		D39	24 h, 37 °C, 99.9% killing		MBC	2 µM (≈ 8.92 µg/mL)
CC(C)(C)C(=O)OCOP(=O)(OCOC(=O)C(C)(C)C)C1CCCN(O)C1=O (stereo not drawn)	PC-3					log GI50	-5.69 log M
CN(C)c1nc(NCc2ccc(-c3ccccc3)cc2)c(/N=N/c2ccc(Cl)cc2)c(N(C)C)n1	Ostrinia furnacalis	leaf dipping		200 mg/L, 96 h		mortality	63.3 ± 5.8%
CN(C(=O)c1ccn2ncc(-c3ccc(C(N)=O)cc3)c2c1)c1ccc(C#N)cn1	Cryptosporidium parvum		UGA1 Nluc, IFN-gamma knockout C57BL/6 mice, faeces	oral, 10 mg/kg daily, 288 h post infection, treatment days 11-17	higher means more parasites	faecal Nluc luminescence	180000 a.u. and 11200 a.u. and 92100 a.u. and 24900 a.u.
CCOC(=O)c1ccc(OCCC2CCN(c3ccc(C)nn3)CC2)cc1	Rhinovirus A	viral replication, high-content imaging	HeLa-CDHR3 C529Y, RV-A16	3 dpi		IC50	0.013 ± 0.001 µM
CNCCO.O=C(O)C(Cl)Cl	Chenopodium album	herbicidal activity		15 mg/mL, 21 days, pre-emergence greenhouse		inhibition	0%
CN(C)[C@H]1C[C@@]23CC[C@@]4(O2)C(=CC[C@]2(C)[C@@H](c5ccc6ccncc6c5)CC[C@H]24)C=C3[C@@H](O)[C@@H]1O	Serine/threonine-protein kinase Nek8 (NEK8, Homo sapiens, UniProt Q86SG6)	ATP probe labelling, inhibitor, KiNativ profiling		1 µM		inhibition	9.6%
CC(C)[C@H]1NC(=O)[C@H](Cc2ccccc2)NC(=O)[C@@H](C(C)C)NC(=O)[C@@H](C)NC(=O)[C@H](C)NC(=O)[C@@H](Cc2c(-c3ccc(-c4ccc(-c5ccccc5)cc4)cc3)[nH]c3ccccc23)NC(=O)[C@@H](CO)NC1=O	Mycobacterium marinum					MIC90	40.4 µM (≈ 40 µg/mL)
O=C1NC2(CC2)COc2ncc(F)cc2[C@H]2COCCN2c2ccn3ncc1c3n2			Sprague-Dawley rat, female, serum	oral, 20 mg/kg/day, end of recovery, 4-week subacute toxicity		serum hepatic lipase activity	3.4 ± 0.1 U/L
COc1ccccc1-c1n[nH]c2nc(NC3CCN(C(=O)Cc4ccc(F)cc4F)CC3)ncc12		bead binding, competition bead pull-down, measured: LMJF.36.3530	Leishmania donovani extract	10 µM	reference: vehicle	relative abundance	0.93
Fc1cccc(COc2ccc(Nc3ncnc4ccc(-c5ccccc5)cc34)cc2Cl)c1	Trypanosoma cruzi	intracellular amastigote growth, β-galactosidase CPRG	3T3, Tulahuen, β-galactosidase-expressing	96 h		EC50	1.8 µM
CC(C)C[C@H](NC(=O)[C@@H](N)CO)C(=O)N[C@@H](Cc1c[nH]c2ccccc12)C(=O)N[C@@H](CCC(=O)O)C(=O)N[C@@H](CC(N)=O)C(=O)N[C@@H](Cc1ccccc1)C(=O)N[C@@H](CCCCN)C(=O)N[C@@H](CC(N)=O)C(=O)N[C@@H](C)C(=O)NCC(=O)N[C@@H](CCCCN)C(=O)N[C@@H](CCCCN)C(N)=O	Gram-negative bacteria					geometric mean MIC	256 µM
Cc1cc(C(=O)Nc2nc3cccc(C)c3n2[C@H]2CCCCN(C(=O)/C=C/CN(C)C)C2)ccn1	Trypanosoma brucei	propidium iodide flow cytometry, measured: G2/M phase	bloodstream CLK1 over-expression induced	concentration not given		cell cycle distribution	24.1% and 26.7% and 25.2%

Excerpt of the above:
Compound	target or system	test	test system	setting	scale	quantity	result
COc1ccccc1-c1n[nH]c2nc(NC3CCN(C(=O)Cc4ccc(F)cc4F)CC3)ncc12		bead binding, competition bead pull-down, measured: LMJF.36.3530	Leishmania donovani extract	10 µM	reference: vehicle	relative abundance	0.93
Fc1cccc(COc2ccc(Nc3ncnc4ccc(-c5ccccc5)cc34)cc2Cl)c1	Trypanosoma cruzi	intracellular amastigote growth, β-galactosidase CPRG	3T3, Tulahuen, β-galactosidase-expressing	96 h		EC50	1.8 µM
